Experimental data from different studies.
Each numbered part is a random draw from the data of one study; scales do not carry over between parts. Changes are numbered by the printed parent chain.

Study 1 — method: protein-binding microarray; form: double-stranded DNA, one strand shown; medium: in vitro; concentration: 2540 nM top; setting: 60-bp whole probe; with: salmon DNA 0.4 mg/ml; relative to: random background probes; direction: higher = stronger binding; shared flanks, not repeated: GCCTAGCAC … GTCTTGATTCGCTTGACGCTGCTG
Target: Interferon regulatory factor 3, full length, phosphomimetic (IRF3, Homo sapiens, UniProt Q14653, residues 1-427, S386D/S396D/S398D/S402D/T404D/S405D)
Construct (chain): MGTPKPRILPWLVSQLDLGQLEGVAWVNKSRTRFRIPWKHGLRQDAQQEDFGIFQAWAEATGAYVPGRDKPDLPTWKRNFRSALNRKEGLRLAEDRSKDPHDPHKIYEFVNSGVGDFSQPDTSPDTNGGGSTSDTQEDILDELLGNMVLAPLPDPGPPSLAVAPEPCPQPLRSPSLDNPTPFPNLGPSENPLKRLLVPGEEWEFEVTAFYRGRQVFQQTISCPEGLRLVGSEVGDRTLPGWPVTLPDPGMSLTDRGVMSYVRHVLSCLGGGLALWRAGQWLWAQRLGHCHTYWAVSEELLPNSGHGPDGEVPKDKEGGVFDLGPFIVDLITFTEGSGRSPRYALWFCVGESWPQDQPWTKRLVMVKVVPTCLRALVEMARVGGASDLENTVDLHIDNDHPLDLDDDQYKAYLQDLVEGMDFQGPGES
| Strand | fitted relative affinity [z-score] |
| --- | --- |
| CACTCTTGCTTTTTAGATCGGTGCTAG | 1.98 |
| GACGATTTCGGGTTCCGAGACGTGCTA | 2.33 |
| TTAGGTTTCGGTTACGGTTAGTGCTAG | 8.13 |
| TTAGGTTTCGGTCTCGGATAGTGCTAG | 8.46 |
| TAGAAACTCGTGTTTTTCTCCGTGCTA | -0.382 |
| GACGATTTCGGGTATCGAGAGGTGCTA | 1.71 |
| TCATCTTTCACTACTCCACTGTGCTAG | 1.72 |
| GACGATTTCTGTTTCGAGACGTGCTAG | 4.29 |
| TTAGGTCTCCTTATCCTTTCGTGCTAG | 3.2 |
| TGAGGTATCGGTCTCGGTTAGTGCTAG | 4.07 |
| TTAGAACTGAGTCACGATTAGTGCTAG | -0.315 |
| AGAATTTTCATTAACTGTTAGTGCTAG | 0.386 |
| TCACATTAAATTTTAATACTGTGCTAG | 0.6 |
| TCGAGTCTGCAACATGGGACTGTGCTA | -0.328 |
| TTCGATTTCGGGTTTCGATTAGTGCTA | 3.65 |
| AGTCGTGAGCCGCACAGTGGGTGCTAG | -0.9 |
| TCATTTCTCCTTTGTAAACTGTGCTAG | 3 |
| GACGATCTCTGTCTCGAGACGTGCTAG | 0.549 |
| TTCGGTTTCGGTCTCGGTTAGTGCTAG | 8.72 |

Study 2 — target: CCNF, cyclin fold, Cln2 fusion (human); method: yeast growth competition, sequencing; medium: yeast; setting: strong parent motif; relative to: not given; direction: higher = stronger binding
Starting sequence: ORC1 docking peptide (human); PRARKRLELGNLG
| Change | normalised enrichment score |
| --- | --- |
| R4D | 0.503 |
| L12A | 3.56 |
| A3Q | 1.77 |
| P1C | 6.61 |
| G10S | 2.93 |
| N11M | 4.4 |
| E8A | 1.64 |
| G10W | 4.27 |
| K5E | 0.384 |
| L9P | 0.505 |
| R6G | 1.6 |
| R2M | 4.03 |
| G10Y | 4.74 |
| A3T | 2.8 |
| R6E | 1.68 |
| L9G | 0.666 |
| R6W | 1.69 |

Study 3 — method: DHFR PCA, deep sequencing; medium: yeast; with: (+)-ABA 1.4 µM; relative to: wild-type fitted maximum; direction: higher = stronger binding
Target: ABI1, truncated, D143A, DHFR fusion (Arabidopsis thaliana)
Setting: methotrexate growth selection, single substitutions
Starting sequence: PYL1, truncated, DHFR fusion (Arabidopsis thaliana); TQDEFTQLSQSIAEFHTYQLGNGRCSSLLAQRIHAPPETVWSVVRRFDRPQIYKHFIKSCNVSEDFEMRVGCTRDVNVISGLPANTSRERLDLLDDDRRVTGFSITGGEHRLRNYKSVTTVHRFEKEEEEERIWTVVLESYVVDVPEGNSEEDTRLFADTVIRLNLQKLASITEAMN; partner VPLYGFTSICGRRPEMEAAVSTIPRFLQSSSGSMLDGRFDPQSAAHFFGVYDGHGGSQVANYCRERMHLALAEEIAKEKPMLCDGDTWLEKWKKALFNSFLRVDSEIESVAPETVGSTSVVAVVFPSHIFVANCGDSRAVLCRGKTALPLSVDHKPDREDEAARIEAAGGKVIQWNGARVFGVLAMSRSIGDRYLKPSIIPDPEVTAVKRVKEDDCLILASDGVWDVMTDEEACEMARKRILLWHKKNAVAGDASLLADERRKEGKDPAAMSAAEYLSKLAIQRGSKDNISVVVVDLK
| Change | relative binding score [%] |
| --- | --- |
| V161P | 0.866 |
| E127P | 75.2 |
| L29P | -6.72 |
| R98N | 47.3 |
| T154F | -54.5 |
| L138W | -3.82 |
| T135W | -0.274 |
| V43T | 10.5 |
| S104K | -10.8 |
| R90L | 6.26 |
| F47A | -0.404 |
| S140H | 11.2 |
| E38G | 10.1 |
| L164I | 21.7 |
| T160W | 1.47 |
| R111Q | 1.23 |
| Y53E | -2 |
| K126F | 51.6 |
| D96T | -1.07 |
| E4Q | 46.7 |
| C25L | -5.19 |
| S11C | 69 |
| E174V | 10.6 |

Study 4 — method: RNA Bind-n-Seq; form: RNA; medium: in vitro; concentration: 365 nM; relative to: no-protein control; direction: higher = stronger binding
Target: RNA binding protein fox-1 homolog 2, RRM domain, GST-SBP tag (RBFOX2, Homo sapiens, UniProt O43251-10, residues 100-194)
Setting: natural RNA segment, single round, ends assumed
Shared flanks, not repeated: GGGAGUUCUACAGUCCGACGAUC … UGGAAUUCUCGGGUGCCAA
| Strand | RBNS enrichment (R) |
| --- | --- |
| UUCGGAGCAUGAAGACCCUGGAGUUCAAAAAACUCUUGAUAUGACCUGUUAUUACCAUUAGCAUUCUGGUUUUGACAUCAGCAUUAGUCACUUUGAAAUGUAACGAAUGG | 4.9 |
| CUCCCUUGUCAUCAGUAGUAACCUAUACUCAAGUGCCUGUGUCUUCUCAUCUCACUUAGGAUUGUACCCCAAAGUCCUACAUGAUUGGCUUUAAAUGUCCGGGAAAACUA | 0.616 |
| GGGUGUGCUGACAUGUUUGCUCUUGGUUGAUGGAGAAGGUACAGAGGCCAGGGAGUGAAAAUGGUUGACAGAAGAGGGAAGAGUUAGGUGUCUCAUAGUCACUCAUAGUG | 1.37 |
| UAAUGCCAGCUUUAGGACAGAAAGAAUUAUAAGAAAACCAGCAUAAUACCUGAUAUAUUAAAAUGUAGUGCCUGUGAAAUCUGUAUUAUAUUGCUCUUCUGAAGUAAGAU | 2.23 |
| UAGAAAGUUAACCCUAUUAAUUUCAGUAUCAAACAUUGUUACAGUCAAAGACAAGGAAGACCAAACCACACACUGUAAAAGUCCACUGCUCUGUAGUUUAUGCCAAGACC | 0.362 |
| UGACUGCCAUCUUGCUCCAUGGUGGCUCUUCUGGCCUGGGACCCGGUCCACAGGAAGGGCUAGGAGCUGAAUUAAAGAUGAGAGCAUCCCUCCUGCACACUGGGGCUUCC | 1.09 |
| ACAGGGAAGACAUUACACUAGUUGAGGCUACCGAACCUUACAUUUUGCUAGAGCUCAAGUAAUAGAAACUUAGUUUCAGAAUCCUGAAUUCAGCACCUAUUUUGAAUUAA | 0.517 |
| GUGGCUGCUGCUGGCCUCCCUGCAAGUCCCCUCUUCUUCCUGUUGCGUGCCUGGACUCAGGAGCAUAGAAAAGACAAUUGUGGAUUGGGCCACACUGGCCUAGCCUGAAC | 1.51 |

Excerpt of the above (study 3):
| Change | relative binding score [%] |
| --- | --- |
| L29P | -6.72 |
| R98N | 47.3 |
| T154F | -54.5 |
| L138W | -3.82 |
